Results gathered from unrelated publications.
Each line is one published result; not all experiments were run side by side. ± marks the error that the study gave.

SMILES | cell line | test | conditions | scale | quantity | result
COc1ccc(NC(=S)N/N=C/c2cccc3cc4ccccc4nc23)cc1 | HeLa | PI flow cytometry | IC12.5, 48 h |  | S phase cells | 26.1 ± 0.8%
COc1cc(-c2nncn2C)ccc1Nc1ncc2ccnc(NCC(C)(C)C)c2n1 | CAL-51 | cell growth | 72 h |  | GI50 | 0.012 µM
Cn1cc(-c2ccc(-c3cncc(Cl)c3N3CCC4(CCNC4=O)CC3)cc2)cn1 | COLO 205 | gene expression, microarray, refers to: SLC2A4 mRNA | concentration not given, 6 h | relative to: untreated cells | log2 fold change | -2.54
CSc1cc(Oc2ccnc3[nH]c(=O)cnc23)ccc1NC(=O)Nc1cc(C(C)(C)C)nn1-c1ccccc1 | patient-derived cell line clone B | RPPA | 1 µM, 4 h | relative to: DMSO | phospho-Met/total Met ratio | 0.68
O=c1[nH]nc(OCCCc2ccc(Cl)cc2)c(NCc2cccnc2)c1Br | HEK-293T | RNA-seq GSEA, refers to: Hallmark apical surface | concentration not given | direction not given | normalized enrichment score | -0.844
CC(C)(C)c1nc(-c2cccc(NS(=O)(=O)c3c(F)cccc3F)c2F)c(-c2ccnc(N)n2)s1 | C13 | annexin V/PI flow cytometry | concentration not given, 48 h | relative to: control subtracted | early apoptotic cells | 14.5 ± 3%
COc1cnc2cccc(N3CCc4c(cc(Cn5ccnc5C)cc4-c4cn(C)nc4C(F)(F)F)C3=O)c2c1 | Kasumi 1 | cell growth, inhibitor | 120 h |  | EC50 | 11.5 µM
C[C@]12CCCN1CC1=NNC(=O)c3cc(F)cc4[nH]c2c1c34 | MDA-MB-436 (BRCA1 deficient) | cell growth, inhibitor, CellTiter-Glo | 7 days |  | EC50 | 0.041 µM
CCCCc1nc(Cl)c(CO)n1Cc1ccc(-c2ccccc2-c2nn[nH]n2)cc1 | human PBMC | RNA-seq, refers to: PTGS2 mRNA | 10 µg/mL, 24 h | relative to: untreated control | log2 fold change | 1.83
CC(C)(c1ccc(O)cc1)c1ccc(O)cc1 | HepG2 spheroids | Hoechst flow cytometry | 10 µM, 96 h |  | G1 phase cells | 71.7 ± 5.34%
CC(C)C[C@H](NC(=O)[C@H](CO)NC(=O)[C@@H](NC(=O)[C@@H]1CCCN1C(=O)[C@@H](N)CCCCN)C(C)C)C(=O)N[C@@H](CO)C(=O)N[C@@H](Cc1ccc(O)cc1)C(=O)N[C@@H](CCCNC(=N)N)C(=O)NCC(=O)NCC(=O)N[C@H](CC(C)C)C(=O)NCC(=O)N[C@H](C)C(=O)N[C@H](CO)C(=O)N[C@H](Cc1c[nH]c2ccccc12)C(=O)N[C@H](Cc1c[nH]cn1)C(=O)N[C@H](CCCNC(=N)N)C(=O)N[C@@H](Cc1ccc2ccccc2c1)C(=O)N[C@@H](CCCNC(=N)N)C(=O)N[C@@H](CCCNC(=N)N)C(N)=O | SUP-T1 | Transwell migration | 3 h, 37 °C |  | optimal migration-promoting concentration | 0.5 µM
CCn1cc(-c2cc(Cn3ccoc3=N)cc3c2CCN([C@@H](C)c2cc(OC)ccn2)C3=O)c(C(F)(F)F)n1 | OV-90 | cell growth, inhibitor | 120 h |  | EC50 | > 30 µM
O=C(/C=C\n1cnc(-c2cc(C(F)(F)F)cc(C(F)(F)F)c2)n1)NNc1cnccn1 | BT-16 | cell viability, MTT | 10 µM, 72 h |  | inhibition | 88.5%
COc1cc(/C=C/C(=O)N2CCC=CC2=O)cc(OC)c1OC | MDA-MB-468 | qRT-PCR, refers to: FH | 30 µM, 6 h | relative to: time zero | mRNA expression | 90.8 ± 10.2%
CC(C)(C)C(=O)OCOP(=O)(COCCn1cnc2c(N)ncnc21)OCOC(=O)C(C)(C)C | BT-16 | cell viability, MTT | 10 µM, 72 h |  | inhibition | 85.3%
O=C(/C=C/C=C/C=C/C1CCCCC1)NC1=C[C@@](O)(/C=C/C=C/C=C/C(=O)NC2=C(O)CCC2=O)[C@@H]2O[C@@H]2C1=O | RD | cell growth, CellTiter-Glo | 78 h |  | GI50 | 12.3 µM
CC1(C)Oc2ccc(CC3=C(c4ccc(O)cc4)C(=O)OC3=O)cc2C[C@@H]1O | RPTEC | qPCR | 10 µg/mL, 24 h, basal, no LPS | relative to: untreated | IL-6 mRNA level | no effect
CC(=O)[C@]1(O)Cc2c(O)c3c(c(O)c2[C@@H](O[C@H]2C[C@H](N)[C@H](O)[C@H](C)O2)C1)C(=O)c1ccccc1C3=O | BT-16 | cell viability, MTT | 10 µM, 72 h |  | inhibition | 89.3%
O=C(C[C@@H](C(F)F)n1ccc(F)n1)N1CCC(O)(Cn2cnc3c(cnn3-c3ccc(F)cc3)c2=O)CC1 | CHP-212 resistant | PI flow cytometry | 1 µM, 24 h |  | G2/M phase cells | 11.9%
COc1ccc(-c2ccc3ncc4c(c3c2)n(-c2ccc(N3CCNCC3)c(C(F)(F)F)c2)c(=O)n4C)cn1.O=C(O)/C=C\C(=O)O | BT-16 | cell viability, MTT | 10 µM, 72 h |  | inhibition | 94.7%
Cc1cc(Nc2ncc(Cl)c(Nc3ccccc3S(=O)(=O)C(C)C)n2)c(OC(C)C)cc1C1CCNCC1 | SK-N-AS | LC-MS/MS phosphoproteomics, refers to: AAAS phosphorylation | 200 nM, 60 min | relative to: untreated | log2 fold change | -0.639

Excerpt of the above:
SMILES | cell line | test | conditions | scale | quantity | result
COc1cnc2cccc(N3CCc4c(cc(Cn5ccnc5C)cc4-c4cn(C)nc4C(F)(F)F)C3=O)c2c1 | Kasumi 1 | cell growth, inhibitor | 120 h |  | EC50 | 11.5 µM
COc1cc(/C=C/C(=O)N2CCC=CC2=O)cc(OC)c1OC | MDA-MB-468 | qRT-PCR, refers to: FH | 30 µM, 6 h | relative to: time zero | mRNA expression | 90.8 ± 10.2%
